Measurements from different studies.
Numbers after ± are the reported error.
Target: Sodium-dependent noradrenaline transporter (SLC6A2, Homo sapiens, UniProt P23975)
UniProt P23975, sequence (whole entry, looked up): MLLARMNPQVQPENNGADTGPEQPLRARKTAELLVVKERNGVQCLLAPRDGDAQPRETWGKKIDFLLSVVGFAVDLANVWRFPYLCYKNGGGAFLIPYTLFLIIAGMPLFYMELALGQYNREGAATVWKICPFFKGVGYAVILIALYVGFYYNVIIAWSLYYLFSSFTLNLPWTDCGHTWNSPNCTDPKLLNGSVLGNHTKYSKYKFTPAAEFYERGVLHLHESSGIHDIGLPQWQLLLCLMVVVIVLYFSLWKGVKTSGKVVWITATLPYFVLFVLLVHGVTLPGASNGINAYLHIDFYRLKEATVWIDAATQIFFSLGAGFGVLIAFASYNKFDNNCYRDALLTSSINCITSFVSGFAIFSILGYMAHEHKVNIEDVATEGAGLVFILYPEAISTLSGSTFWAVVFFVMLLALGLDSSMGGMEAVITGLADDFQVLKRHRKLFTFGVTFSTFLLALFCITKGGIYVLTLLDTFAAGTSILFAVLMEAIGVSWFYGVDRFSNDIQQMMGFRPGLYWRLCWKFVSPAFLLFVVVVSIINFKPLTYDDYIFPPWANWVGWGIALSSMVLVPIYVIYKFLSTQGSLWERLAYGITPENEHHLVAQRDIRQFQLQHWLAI
Action: inhibitor

Structure (SMILES) | read-out | method | cells | time | temperature | added | IC50
CNC(C)Cc1ccc(O)c(OC)c1 (stereo not shown) | transporter uptake | – | – | – | – | – | 10000 nM
COc1cc(CC(C)N)c(OC)cc1C (single isomer, unassigned; (-)) | transporter uptake | radiometric | – | – | – | – | > 70000 nM
CNC(C)C(=O)c1ccc(O)c(O)c1 (stereo not shown) | transporter uptake | – | – | – | – | – | 780 nM
CCN(CC)C(=O)[C@@H]1C=C2c3cccc4[nH]cc(c34)C[C@H]2N(C)C1 | transporter uptake | radiometric | – | – | – | – | > 100000 nM
CCc1ccc2[nH]c3nc(SCCNS(=O)(=O)c4ccc(NC(C)=O)cc4)nnc3c2c1 | transporter uptake | radiometric | – | – | – | – | 119000 nM
CC1NC(C)(C)COC1(O)c1cccnc1 (stereo not shown) | [3H]norepinephrine uptake | – | HEK293 expressing human NET | – | – | [3H]norepinephrine | > 10000 nM
CC(N)C(=O)c1ccc2c(c1)OCO2 (stereo not shown) | transporter uptake | – | – | – | – | – | 2300 nM
CN1[C@H]2CC[C@@H]1[C@@H](C(=O)N1CCCC1)[C@@H](c1ccc(I)cc1)C2 | noradrenaline reuptake | – | HEK293 expressing SLC6A2 | 10 min | room temperature | [3H]noradrenaline 20 nM | 935 ± 140 nM
COc1ccc([C@]2(O)OCC(C)(C)N[C@H]2C)cc1 | [3H]norepinephrine uptake | – | HEK293 expressing human NET | – | – | [3H]norepinephrine | > 10000 nM
NCCc1ccc(O)cc1 | transporter uptake | radiometric | – | – | – | – | 1030 nM
CNC(C)Cc1ccc(O)c(O)c1 (stereo not shown) | transporter uptake | – | – | – | – | – | 350 nM
NCCc1ccccc1 | transporter uptake | radiometric | – | – | – | – | 385 nM
COC(=O)[C@H]1C(c2ccc(I)cc2)C[C@@H]2CC[C@H]1N2C (stereo partly shown) | transporter uptake | radiometric | – | – | – | – | 37.9 nM

Excerpt of the above:
Structure (SMILES) | read-out | method | cells | time | temperature | added | IC50
CCc1ccc2[nH]c3nc(SCCNS(=O)(=O)c4ccc(NC(C)=O)cc4)nnc3c2c1 | transporter uptake | radiometric | – | – | – | – | 119000 nM
CC1NC(C)(C)COC1(O)c1cccnc1 (stereo not shown) | [3H]norepinephrine uptake | – | HEK293 expressing human NET | – | – | [3H]norepinephrine | > 10000 nM
